Experimental data of several laboratories.
Each numbered part is a random draw from the data of one study; scales do not carry over between parts.

Block 1
Target: RNA binding protein fox-1 homolog 2, RRM domain, GST-SBP tag (RBFOX2, Homo sapiens, UniProt O43251-10, residues 100-194)
Method: RNA Bind-n-Seq
Molecule type: RNA
Matrix: in vitro
Concentration: 365 nM
Notes: natural RNA segment, single round, ends assumed
Reference: no-protein control
Reading: higher = stronger binding
Target sequence (chain): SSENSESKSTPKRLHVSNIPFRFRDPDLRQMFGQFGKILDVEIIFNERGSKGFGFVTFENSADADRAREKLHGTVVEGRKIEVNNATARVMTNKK
Oligonucleotide | RBNS enrichment (R)
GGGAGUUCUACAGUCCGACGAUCUUGGGGGUCUGAAGGUGGCUGGCACUGGGCCUCAGGUCACCCUGAGCCAGUCCCGUGGCCACUUCAGCCCUUUUCCAUCCUCUUUUUAUGACGGUGUGUGUGAGAGAGUGUGGAAUUCUCGGGUGCCAA | 0.204
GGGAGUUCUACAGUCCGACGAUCCUGCAGGGGCUGUUGCAGCAGUCAGUCCCAGGAAGCCACAGCGCUUGUAGGAUCUGCUAGGACCCUGCAGCUGUGCUGCCGCCACCUCUGCUCCAGAGUGUCCCAGCCAAUGGAAUUCUCGGGUGCCAA | 0.304
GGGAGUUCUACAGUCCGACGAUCGCCACAUCUACAUUAGCUUGAGAAGCAGAGGAUUCUGUCAACAUGUGGCCAAGGGCUGUUGGACAAAAAGCUGUGCUUAAGCAGGCAUAUAGUGUGUGUACAUCUUUCGAUGGAAUUCUCGGGUGCCAA | 0.454
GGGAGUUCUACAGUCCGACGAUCUCCUCCCAUAACUGCAGGUGGAUUCCACCUGGGGAAUGAGGCUGCGUGUCGGGCGUCUGCUGGCCCUGAGACAUCCAGUCUUCCACACUCAACUGUGGGAUGGGAGGGUGUGGAAUUCUCGGGUGCCAA | 0.518
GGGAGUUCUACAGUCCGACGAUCACUCACUCUCAUUUGUAAGCAGUCCACAUAGUAGACAAUGGGUUUUCCAAGCUGGGCAAGGUACAUUUAAUCAGUAAAUCAGUUUCACAUCAUGUAUUGUGAUGUUUCAAUGGAAUUCUCGGGUGCCAA | 0.517
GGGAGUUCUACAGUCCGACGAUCUUGAUGUAAUACAUAGCUGUAUGGGGUUUUUUUUAGUAAGUUCUUUGAGCAUAAUUCACUUUAAAGUCAUUUUUCCAGCAAUGUUUAAAUUACUUUCUCAUUCUUUUAGUUGGAAUUCUCGGGUGCCAA | 0.672
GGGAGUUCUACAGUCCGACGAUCGCCUCUCUGACGUGGUGCCUGCUGGAGGGAGGCUCGUCGUCACCAGCUGACUGCUGGUCCGGCUUCUGACCGGCCUUUGUCCUGGCUCCGUAGCAGAACACUGUAAAAGUUGGAAUUCUCGGGUGCCAA | 0.391
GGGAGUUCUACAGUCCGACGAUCCCAUUUGGAUGCGGCUCCAACCUUCCUUCCCUGCGUGUAAAUGAAUCCUGAACCUCGUACUUCACCUAAUGUUAGGGGCUUGCUCGUCUGCACAGGACUUAUUAACAAGUUGGAAUUCUCGGGUGCCAA | 0.668
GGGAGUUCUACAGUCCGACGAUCUUAUUUUUAAUAUUAUUUUAUUUGUGUCUGUGUACAUAUUCAUGUAUAAAUUUUAUGAAACCCAAGCAUAGUGCUUAUUUUUUAAUAAAACAACUGACUUAACACAUUGUUGGAAUUCUCGGGUGCCAA | 0.69

Block 2
Target: RING finger protein unkempt homolog, zinc fingers 1-6, GST-SBP tag (UNK, Homo sapiens, UniProt Q9C0B0, residues 30-357)
Method: RNA Bind-n-Seq
Molecule type: RNA
Matrix: in vitro
Concentration: not given
Notes: RNA with constant flanks, ends assumed
Reference: input RNA pool
Reading: higher = stronger binding
Target sequence (chain): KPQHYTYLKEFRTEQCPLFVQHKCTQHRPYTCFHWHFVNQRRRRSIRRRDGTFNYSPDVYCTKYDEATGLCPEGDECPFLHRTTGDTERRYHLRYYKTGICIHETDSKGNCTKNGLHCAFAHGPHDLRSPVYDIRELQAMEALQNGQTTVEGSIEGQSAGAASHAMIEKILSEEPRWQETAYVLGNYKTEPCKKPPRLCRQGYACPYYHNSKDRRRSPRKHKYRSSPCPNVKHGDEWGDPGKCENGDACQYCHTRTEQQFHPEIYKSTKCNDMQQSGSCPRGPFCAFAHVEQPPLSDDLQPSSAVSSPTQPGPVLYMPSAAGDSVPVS
Oligonucleotide | bound/input enrichment
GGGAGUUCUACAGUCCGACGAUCCUGAUCAUUGGAAAAGGAGGUGAAACCAUAAAAAGCAUAAGCCAACAGUCUGGUGCAAGAACCGAACUGCAGAGAAGCCCUCCACCUAAUGCAGAUCCCAAUAUGAAGUUAUUUACAAUUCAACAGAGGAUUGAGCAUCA | 0.132 ratio
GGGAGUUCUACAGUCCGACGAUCUUCUUCUUCUUUGAUUCAGUUCAAGUCGUUUUCACAAUAUGUACAGCAGUUCUUGCAACAACCGCUUUUGCUUUUCUUCUUCUCCCGAUGUGCCAGUAUUUAACAAGGCCCUGCUCACCUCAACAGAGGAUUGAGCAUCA | 0.511 ratio
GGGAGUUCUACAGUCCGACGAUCGAAGGUUUCUUUACCAACGGUUUGACUCUUGGAGCAAAGAAGUGUUCUGUGAUCAGAGACCGCCUAUACGUUGAUGGUGACUGCACAAUGGACAUCCGGACAAAGAGUCAAGGUGGGGAGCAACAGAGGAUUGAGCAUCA | 0.194 ratio
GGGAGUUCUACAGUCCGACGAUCCAAAGGAACAAUGUGCAAUUGAUAUGUUUUUAGAUGAGAGAGAAAAAUUAAAGCUAAAAUCCGCUGCAAAGAAGUAUUAAUAAUCACCUCUGCAAAAAUUCUAAGUUGCCAACUGGCAAACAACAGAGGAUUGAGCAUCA | 0.817 ratio
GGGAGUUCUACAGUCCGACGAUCCACAAGAUGGAGCAGGAAAUGACCCGGUUACAUCGCAGAGUGUCAGAGGUGGAGGCUGUGCUCCGUCAGAAGGAGGUGGAGCUGAAGGCCUCUGAGACUCAGAGAUCCCUCCUGGAGCAGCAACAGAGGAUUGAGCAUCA | 0.087 ratio
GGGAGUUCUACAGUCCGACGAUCGUCAGGGAACCGGAGCCGGGCCGCCGCGCUGUGGAGAAGCUGCGUCGGGGCGCACAGGUUAUCCGAAAUGGCUACUCCACAGUCAGUUUUCGUCUUUGCAAUCUGCAUUUUAAUGAUAACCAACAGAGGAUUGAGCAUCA | 0.211 ratio
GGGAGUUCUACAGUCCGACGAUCAAGGCAACAGAUGAAACGGGUGUAUCUGCUGUUCAGUUUGGAAACUCUUCUACAUCAGUAUCCGCUACAUUAGCUGCCUUAGCUGAAGCAUCUGCUCCAUUGUCCAAUUCUUCAGAAACUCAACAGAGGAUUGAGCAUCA | 0.0321 ratio
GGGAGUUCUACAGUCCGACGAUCAGUAGAGAACAAUGACCUCAUUUUAUUUUCUAUGUUAGUUAUUUAUUUCAAAAUUAACAUUUCCGUUGAUUUUUGUCUGAUAAGUCUAUGUUUUGCACUGCUAACUAUGAUGAGGGUUUACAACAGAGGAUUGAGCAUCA | 1.08 ratio
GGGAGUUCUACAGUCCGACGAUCAUUGCAACAAAUGGAGAAAGUGCUGUGGUACAAUUACCAAAAAAUGGCCCAAUUUAUGAUGCCGUUUGGAAUUCCAGUUCUACUGAGUUUUGCGCUGUUUAUGGUUUUAUGCCUGCGAAACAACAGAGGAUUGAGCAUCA | 0.0772 ratio
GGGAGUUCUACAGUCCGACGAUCGCUGCAGGAAAAGAGAUUAUAUGGCAUGGGCGGACAAAAGAAGAACCAGCUCAUUACUGCCGCAUUUGUGAAGUGGAGGUUUUUGAUCUGCUUUUUGUCACUAAUGAGAGUAAUUCACGACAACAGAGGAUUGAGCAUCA | 0.136 ratio
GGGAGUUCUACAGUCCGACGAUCCUCAACCAUCCAAAUGUAAUUAAAUACUAUGCAUCAUUCAUUGAGGAUAAUGAGCUGAACACCGUUUUGGAGUUAGCAGAUGCUGGUGACCUCUCCAGAAUGAUAAAGCACUUUAAGAAACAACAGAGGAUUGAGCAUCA | 0.192 ratio

Block 3
Target: Interferon regulatory factor 5, full length, phosphomimetic (IRF5, Homo sapiens, UniProt Q13568-2, residues 1-514, K96S/S451D/S453D/S456D/S462D)
Method: protein-binding microarray
Molecule type: double-stranded DNA, one strand shown
Matrix: in vitro
Concentration: 250 nM
Notes: 60-bp whole probe
Together with: salmon DNA 0.4 mg/ml
Reference: random background probes
Reading: higher = stronger binding
Shared flanks, not repeated: GCCTAGCAC … GTCTTGATTCGCTTGACGCTGCTG
Oligonucleotide | log fluorescence
GACGGTTCCCGTTTCCTGACGTGCTAG | 0.268 z-score
TTAGGTATCGACTATCGGTTTGTGCTA | 7.82 z-score
GACGGTTTCCTTTTGCTGACGTGCTAG | 1.12 z-score
TTAGGACTGGGTCACGGTTAGTGCTAG | -0.213 z-score
TTAGGATCCCTTTTCCTTTAGTGCTAG | 0.417 z-score
TCAACTTTTTTTTTTCCACTGTGCTAG | 1.05 z-score
TTAGGACTAGGACTGGGTTAGTGCTAG | -0.428 z-score
TTAGATCTCAGACAGGATTAGTGCTAG | -0.111 z-score
TTAGAACTGGGGTAGCGATTAGTGCTA | -0.182 z-score
GACGGTTTCGGGCATCGGGACGTGCTA | 5.56 z-score
TCAAGTTTCCATTTTCAACTGTGCTAG | 2.33 z-score
TTAGGACTGGGGGATCGGTTAGTGCTA | 0.425 z-score
TCACTTTGCTCATTTTTCACTGTGCTA | 1.28 z-score
TTATGTTTCCTACTGCTTTAGTGCTAG | 1.07 z-score
TTGGGACTGGACTTTCGGTTAGTGCTA | 8.66 z-score
GACAAACTGAGACTGGAGACGTGCTAG | -0.28 z-score

Block 4
Target: Centromere-binding protein 1, full length, His-tagged (CBF1, Saccharomyces cerevisiae, UniProt P17106, residues 1-351)
Sequence of UniProt P17106 (whole entry, looked up): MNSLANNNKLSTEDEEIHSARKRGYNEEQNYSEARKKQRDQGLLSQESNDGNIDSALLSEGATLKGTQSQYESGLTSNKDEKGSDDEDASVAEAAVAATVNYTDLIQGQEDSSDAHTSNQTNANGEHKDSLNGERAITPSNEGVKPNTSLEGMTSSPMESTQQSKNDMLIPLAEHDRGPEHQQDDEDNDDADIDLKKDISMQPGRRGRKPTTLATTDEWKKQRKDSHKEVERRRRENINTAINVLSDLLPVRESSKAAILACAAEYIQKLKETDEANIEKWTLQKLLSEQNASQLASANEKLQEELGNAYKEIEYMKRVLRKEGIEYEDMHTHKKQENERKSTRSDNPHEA
Method: competition protein-binding microarray
Molecule type: double-stranded DNA, one strand shown
Matrix: in vitro
Concentration: 2 µM
Notes: whole 60-bp probe, lowest competitor level
Together with: Pho4 competitor, 0.05 µM
Reading: higher = stronger binding
Oligonucleotide | fluorescence intensity [a.u.]
TGCGCAACAACTTCACACGTGTTTTTATGTCTAGAAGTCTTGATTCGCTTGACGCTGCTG | 1320
AAAAGTTTCCCTTCTCACGTGTCCATAAAGCATCAAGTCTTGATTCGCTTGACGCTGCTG | 2400
TATTGCAGCTGGTCCCACGTGGGTAAGCGGTTGGCGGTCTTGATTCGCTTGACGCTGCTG | 589
CTTCTGTAAATTTTTCACGTGGCGTGAAGCGCCCCGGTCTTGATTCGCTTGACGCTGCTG | 683
AAAGCGGTAATTTGTCACGTGGGTGCAGATATCTATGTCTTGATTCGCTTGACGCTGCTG | 8060
CTTTCCCGATCTTGTTAAGTGGGTGTAGCACATTTGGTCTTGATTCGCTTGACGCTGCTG | 78.9
TGCGCAACAACTTTTCACGTGTAGTTATGTCTAGAAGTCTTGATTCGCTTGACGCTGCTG | 662
CGGGCATGTTTCCGTCACATGATGGGATGGCGATGTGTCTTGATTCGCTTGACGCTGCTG | 714
TGTCGAGGTATCGGCCGCGTGGAACTACCGGGAATTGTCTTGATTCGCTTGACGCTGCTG | 78.3
CTTTCCCGATCTTGTCACTTCACTTTAGCACATTTGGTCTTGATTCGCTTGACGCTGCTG | 71.4
TCCATCTTTTCTAGCACCGTGGTAGCCATATGGAGAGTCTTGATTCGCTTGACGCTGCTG | 77.6
CTTGAAACTCCTCCACGCGTGCTTTTTCTTGTTCAGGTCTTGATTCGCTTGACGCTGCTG | 97
CTCTGAGTTTTTTGACACATGCCAGAAGAAACGTTAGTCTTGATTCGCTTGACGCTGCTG | 133
CCGCAGTGCGTAGTTGACGTGGGTAGAAAGCTAGTGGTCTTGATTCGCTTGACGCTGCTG | 47.5
TAAGTGAGGTTCCATCACGGGGCCACCGTTCTCATTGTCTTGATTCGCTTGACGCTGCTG | 213
CGTTGTCGATTTTCACACGTGCAAACAATGAGGTTGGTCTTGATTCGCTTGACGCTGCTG | 1810
TGGCGTTCGACGACTCATGTGTGTTAGATTGGGACAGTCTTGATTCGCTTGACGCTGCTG | 75.4
CTTCTGTAAATTTGTGGCGTGGGTGGACGCGCCCCGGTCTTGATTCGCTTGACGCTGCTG | 77.9
AACGGGTTTCGAGATCTCGTGAGGATGGTTTTGGAAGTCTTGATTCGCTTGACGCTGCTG | 169

For quick reference, copied from above (block 4):
Oligonucleotide | fluorescence intensity [a.u.]
TGCGCAACAACTTCACACGTGTTTTTATGTCTAGAAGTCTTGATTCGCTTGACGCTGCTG | 1320
AAAAGTTTCCCTTCTCACGTGTCCATAAAGCATCAAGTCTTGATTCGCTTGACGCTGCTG | 2400
TATTGCAGCTGGTCCCACGTGGGTAAGCGGTTGGCGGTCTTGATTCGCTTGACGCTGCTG | 589
CTTCTGTAAATTTTTCACGTGGCGTGAAGCGCCCCGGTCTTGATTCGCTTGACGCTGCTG | 683
AAAGCGGTAATTTGTCACGTGGGTGCAGATATCTATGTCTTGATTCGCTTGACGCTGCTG | 8060
CTTTCCCGATCTTGTTAAGTGGGTGTAGCACATTTGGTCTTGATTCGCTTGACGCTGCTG | 78.9
